Assay results from different studies.
Parts stem from different laboratories: compare values within a part only.

Series 1 — technique: protein-binding microarray; molecule type: double-stranded DNA, one strand shown; sample: in vitro; tested at: 2200 nM top; setting: 60-bp whole probe; together with: salmon DNA 0.4 mg/ml; baseline: random background probes; reading: higher = stronger binding; shared flanks, not repeated: GCCTAGCAC … GTCTTGATTCGCTTGACGCTGCTG
Target: Interferon regulatory factor 7, full length, phosphomimetic (IRF7, Homo sapiens, UniProt Q92985, residues 1-503, S471D/S472D/S475D/S476D/S477D/S483D/S484D/S487D)
Residues (chain): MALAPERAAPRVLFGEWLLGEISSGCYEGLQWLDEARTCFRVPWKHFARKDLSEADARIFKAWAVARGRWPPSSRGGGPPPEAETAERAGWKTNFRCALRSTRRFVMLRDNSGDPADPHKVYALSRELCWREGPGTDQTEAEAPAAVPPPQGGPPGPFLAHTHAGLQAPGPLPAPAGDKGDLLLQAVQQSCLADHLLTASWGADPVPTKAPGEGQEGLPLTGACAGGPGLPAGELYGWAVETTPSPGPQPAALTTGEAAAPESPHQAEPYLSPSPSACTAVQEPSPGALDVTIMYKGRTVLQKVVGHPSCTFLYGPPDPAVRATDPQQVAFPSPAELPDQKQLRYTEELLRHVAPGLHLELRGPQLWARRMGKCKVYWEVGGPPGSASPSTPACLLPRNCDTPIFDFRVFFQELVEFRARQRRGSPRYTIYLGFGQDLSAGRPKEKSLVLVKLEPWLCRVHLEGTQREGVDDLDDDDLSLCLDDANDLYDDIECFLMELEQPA
`GACGGACTGGACACTGGGTACGTGCTA`: “fitted relative affinity” -0.783 z-score.
Under “fitted relative affinity”, `TTAGATATCGGGTATCGATCAGTGCTA` is recorded as 0.151 z-score.
`CCTCCTCTAACTTTCCAATTGTGCTAG`: “fitted relative affinity” 3.94 z-score.
`TTAGGTTTCCATTTCCTTTAGTGCTAG`: “fitted relative affinity” 5.21 z-score.
For `GACCAACTGAGTCTCGAGACGTGCTAG`, “fitted relative affinity” read 0.227 z-score.
For `GACGAACTGGGGTTTCGAAACGTGCTA`, “fitted relative affinity” read 1.44 z-score.
`TTAAGTATCGGTATCGGTTAGTGCTAG`: “fitted relative affinity” 1.18 z-score.
Under “fitted relative affinity”, `TTAGGTTTTGACTATCGGTTAGTGCTA` is recorded as 0.668 z-score.
For `CTTCATGTTTTTTTCTACTTGTGCTAG`, “fitted relative affinity” read 2.88 z-score.
`TCTTTCACAAGACGAAAGGAGTGCTAG`: “fitted relative affinity” 1.36 z-score.
`GACGGTCTCCTACTGCTGAGGTGCTAG`: “fitted relative affinity” 0.212 z-score.

Series 2 — technique: aptamer microarray, sandwich; molecule type: DNA with 2'F-ANA; sample: in vitro; tested at: 200 nM; together with: Cy3 exosite-II aptamer, 400 nM; reading: higher = stronger binding; sequence: GGTTGGTGTGGTTGG
Target: Prothrombin, mature alpha-thrombin (F2, Homo sapiens, UniProt P00734)
Setting: whole 15-mer aptamer, many near background
Under “mean fluorescence intensity”, `2'F-ANA at 3 6 8 9` is recorded as 939 a.u.
Under “mean fluorescence intensity”, `2'F-ANA at 1 5 6 7 11 12 13 14 15` is recorded as 51 a.u.
Under “mean fluorescence intensity”, `2'F-ANA at 1 3 4 5 7 9 10 12 14 15` is recorded as 45.9 a.u.
For `2'F-ANA at 2 3 4 5 12 14`, “mean fluorescence intensity” read 57.3 a.u.
`2'F-ANA at 3 4 5 6 7 8 10 11 12 13 15`: “mean fluorescence intensity” 52 a.u.
For `2'F-ANA at 2 3 5 6 9 10 11 12 13 14`, “mean fluorescence intensity” read 56.3 a.u.
Under “mean fluorescence intensity”, `2'F-ANA at 3 4 6 8 9 12 14` is recorded as 307 a.u.

Series 3 — technique: protein binding microarray; molecule type: double-stranded DNA, one strand shown; sample: in vitro; tested at: not given; baseline: not given; reading: higher = stronger binding
Target: Histone acetyltransferase KAT6A, winged helix 1, GST fusion (KAT6A, Homo sapiens, UniProt Q92794, residues 1-85)
Setting: 8-mer, flanks averaged, mean of 2 arrays, mostly near background
Target sequence (chain): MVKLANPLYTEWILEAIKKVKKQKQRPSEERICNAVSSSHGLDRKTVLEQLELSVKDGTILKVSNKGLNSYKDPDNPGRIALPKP
`GCTTATCC` gave an E-score of 0.0183.
`AGTTCGCG` has an E-score of 0.214.
For `CTGTAACA`, the E-score was -0.0652.
`CGACGGCC` has an E-score of 0.435.
`GCCACTCA` gave an E-score of -0.0519.
With `TTGGGAAA` the E-score was -0.235.
`CGTTAGCA` gave an E-score of 0.0901.

Single results of other studies
`PhoQ, residues 284 288 289 292 302 303 TLASMF` has a fold induction of 7.56 (PhoP, residues 12 14 15 18 19 NFCKL (Escherichia coli, UniProt P23836); Sort-seq, item: YFP reporter; E. coli; PhoQ-PhoP variant library, together with: 10 µM Mg2+; baseline: high Mg2+ state, higher = stronger signaling).
